Measured values from different studies.
Several values in a cell are separate wells, animals, samples, runs or records. ± marks the error that the study gave.
Nuclear receptor subfamily 2 group C member 2 ligand-binding domain: Nuclear receptor subfamily 2 group C member 2, ligand-binding domain (Homo sapiens, UniProt P49116)
UniProt P49116, sequence (whole entry, looked up): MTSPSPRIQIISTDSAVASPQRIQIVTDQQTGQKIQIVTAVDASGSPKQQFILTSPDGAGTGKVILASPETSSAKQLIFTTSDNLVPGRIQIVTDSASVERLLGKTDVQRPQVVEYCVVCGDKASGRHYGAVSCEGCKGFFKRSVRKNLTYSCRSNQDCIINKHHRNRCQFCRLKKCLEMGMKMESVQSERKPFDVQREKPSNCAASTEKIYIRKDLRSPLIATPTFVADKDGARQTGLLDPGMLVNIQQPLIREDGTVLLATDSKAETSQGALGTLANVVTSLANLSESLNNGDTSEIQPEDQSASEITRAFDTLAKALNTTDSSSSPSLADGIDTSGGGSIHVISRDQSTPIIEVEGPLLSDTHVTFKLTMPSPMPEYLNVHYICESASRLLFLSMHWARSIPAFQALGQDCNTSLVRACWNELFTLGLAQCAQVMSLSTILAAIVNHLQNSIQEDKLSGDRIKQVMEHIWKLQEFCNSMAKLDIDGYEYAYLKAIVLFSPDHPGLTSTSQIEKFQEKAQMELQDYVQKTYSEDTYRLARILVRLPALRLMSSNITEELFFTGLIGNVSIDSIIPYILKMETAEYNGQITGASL
GUK1: GUK1 (Homo sapiens, UniProt Q16774)
UniProt Q16774, sequence (whole entry, looked up): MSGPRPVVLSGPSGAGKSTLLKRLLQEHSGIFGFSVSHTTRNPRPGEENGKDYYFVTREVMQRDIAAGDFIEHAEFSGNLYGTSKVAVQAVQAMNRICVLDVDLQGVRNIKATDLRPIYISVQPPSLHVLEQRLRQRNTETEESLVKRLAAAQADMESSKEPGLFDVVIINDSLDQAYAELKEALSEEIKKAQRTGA
ATRX F284Y/K251R: Transcriptional regulator ATRX (ATRX, Homo sapiens, UniProt P46100, F284Y/K251R)
UniProt P46100, sequence (whole entry, unmodified, looked up): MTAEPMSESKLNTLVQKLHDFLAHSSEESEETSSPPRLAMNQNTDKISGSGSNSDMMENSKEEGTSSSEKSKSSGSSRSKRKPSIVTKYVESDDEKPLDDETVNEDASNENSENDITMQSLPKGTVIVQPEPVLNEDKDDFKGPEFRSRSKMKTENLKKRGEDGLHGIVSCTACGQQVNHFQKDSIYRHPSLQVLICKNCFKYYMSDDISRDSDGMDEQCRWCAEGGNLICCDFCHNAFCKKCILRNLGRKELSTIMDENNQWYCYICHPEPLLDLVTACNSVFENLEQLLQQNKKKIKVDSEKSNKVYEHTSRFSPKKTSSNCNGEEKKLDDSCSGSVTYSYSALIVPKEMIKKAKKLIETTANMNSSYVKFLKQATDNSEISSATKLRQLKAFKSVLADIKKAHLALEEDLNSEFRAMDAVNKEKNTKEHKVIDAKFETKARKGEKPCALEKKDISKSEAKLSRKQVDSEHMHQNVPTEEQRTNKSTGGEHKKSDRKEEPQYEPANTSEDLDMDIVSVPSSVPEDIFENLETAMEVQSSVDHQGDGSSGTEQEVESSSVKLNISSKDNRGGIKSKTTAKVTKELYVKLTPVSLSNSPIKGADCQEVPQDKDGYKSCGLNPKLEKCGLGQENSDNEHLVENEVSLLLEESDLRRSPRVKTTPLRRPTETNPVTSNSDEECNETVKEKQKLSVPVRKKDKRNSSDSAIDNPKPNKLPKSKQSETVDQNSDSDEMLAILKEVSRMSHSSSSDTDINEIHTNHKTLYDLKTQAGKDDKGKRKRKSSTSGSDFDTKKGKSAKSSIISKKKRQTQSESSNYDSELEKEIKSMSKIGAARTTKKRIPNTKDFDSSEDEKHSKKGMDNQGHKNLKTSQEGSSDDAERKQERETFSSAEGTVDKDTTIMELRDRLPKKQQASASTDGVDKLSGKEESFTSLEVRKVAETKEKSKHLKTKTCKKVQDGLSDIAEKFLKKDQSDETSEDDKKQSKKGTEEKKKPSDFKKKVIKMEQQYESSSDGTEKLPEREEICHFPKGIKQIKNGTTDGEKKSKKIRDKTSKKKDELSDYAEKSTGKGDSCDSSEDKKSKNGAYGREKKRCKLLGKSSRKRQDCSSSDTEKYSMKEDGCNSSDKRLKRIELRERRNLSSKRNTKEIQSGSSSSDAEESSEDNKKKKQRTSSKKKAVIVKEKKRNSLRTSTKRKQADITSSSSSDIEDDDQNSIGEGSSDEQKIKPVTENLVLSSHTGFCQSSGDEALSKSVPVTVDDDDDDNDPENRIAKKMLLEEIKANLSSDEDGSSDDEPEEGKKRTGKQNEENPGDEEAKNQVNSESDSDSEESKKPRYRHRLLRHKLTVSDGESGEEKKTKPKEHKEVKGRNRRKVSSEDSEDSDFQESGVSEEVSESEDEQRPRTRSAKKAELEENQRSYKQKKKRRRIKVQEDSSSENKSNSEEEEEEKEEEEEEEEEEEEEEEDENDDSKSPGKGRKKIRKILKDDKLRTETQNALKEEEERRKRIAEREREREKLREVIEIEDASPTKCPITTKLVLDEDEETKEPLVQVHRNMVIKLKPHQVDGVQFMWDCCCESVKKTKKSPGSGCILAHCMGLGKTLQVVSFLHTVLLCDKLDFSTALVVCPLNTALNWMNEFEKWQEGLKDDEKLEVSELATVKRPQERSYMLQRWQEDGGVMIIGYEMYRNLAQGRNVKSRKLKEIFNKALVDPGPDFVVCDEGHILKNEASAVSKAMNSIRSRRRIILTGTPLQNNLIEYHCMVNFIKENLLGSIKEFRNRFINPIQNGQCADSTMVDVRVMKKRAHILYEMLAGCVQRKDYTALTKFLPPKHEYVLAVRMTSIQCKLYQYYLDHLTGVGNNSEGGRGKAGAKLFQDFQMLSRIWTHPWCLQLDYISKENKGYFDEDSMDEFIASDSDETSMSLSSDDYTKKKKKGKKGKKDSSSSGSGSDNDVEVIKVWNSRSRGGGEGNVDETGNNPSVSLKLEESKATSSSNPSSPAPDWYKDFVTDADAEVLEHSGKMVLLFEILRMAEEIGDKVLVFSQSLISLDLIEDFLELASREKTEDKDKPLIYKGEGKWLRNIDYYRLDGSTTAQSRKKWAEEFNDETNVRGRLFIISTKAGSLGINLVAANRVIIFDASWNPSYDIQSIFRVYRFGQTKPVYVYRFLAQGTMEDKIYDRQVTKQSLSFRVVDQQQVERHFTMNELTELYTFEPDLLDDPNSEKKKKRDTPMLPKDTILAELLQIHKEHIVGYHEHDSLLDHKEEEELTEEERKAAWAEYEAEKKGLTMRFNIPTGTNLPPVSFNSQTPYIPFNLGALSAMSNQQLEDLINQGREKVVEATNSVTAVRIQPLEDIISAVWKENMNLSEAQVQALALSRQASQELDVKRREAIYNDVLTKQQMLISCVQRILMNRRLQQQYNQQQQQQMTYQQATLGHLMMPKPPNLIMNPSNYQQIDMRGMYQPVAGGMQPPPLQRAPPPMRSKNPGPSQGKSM
YTH domain-containing protein 1: YTH domain-containing protein 1 (Homo sapiens, UniProt Q96MU7)
UniProt P51575, sequence (whole entry, unmodified, looked up): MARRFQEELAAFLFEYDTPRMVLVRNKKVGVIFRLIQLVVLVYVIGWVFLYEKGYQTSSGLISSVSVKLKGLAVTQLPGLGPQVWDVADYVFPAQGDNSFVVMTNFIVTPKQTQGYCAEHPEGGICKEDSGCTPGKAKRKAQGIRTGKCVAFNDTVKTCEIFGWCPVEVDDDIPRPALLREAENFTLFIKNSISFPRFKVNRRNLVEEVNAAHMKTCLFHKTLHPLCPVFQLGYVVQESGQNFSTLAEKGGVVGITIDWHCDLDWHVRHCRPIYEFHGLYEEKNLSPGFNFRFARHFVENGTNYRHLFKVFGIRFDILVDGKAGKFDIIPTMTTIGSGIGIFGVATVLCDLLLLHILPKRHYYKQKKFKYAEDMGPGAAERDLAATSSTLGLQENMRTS
UniProt P30613, sequence (whole entry, looked up): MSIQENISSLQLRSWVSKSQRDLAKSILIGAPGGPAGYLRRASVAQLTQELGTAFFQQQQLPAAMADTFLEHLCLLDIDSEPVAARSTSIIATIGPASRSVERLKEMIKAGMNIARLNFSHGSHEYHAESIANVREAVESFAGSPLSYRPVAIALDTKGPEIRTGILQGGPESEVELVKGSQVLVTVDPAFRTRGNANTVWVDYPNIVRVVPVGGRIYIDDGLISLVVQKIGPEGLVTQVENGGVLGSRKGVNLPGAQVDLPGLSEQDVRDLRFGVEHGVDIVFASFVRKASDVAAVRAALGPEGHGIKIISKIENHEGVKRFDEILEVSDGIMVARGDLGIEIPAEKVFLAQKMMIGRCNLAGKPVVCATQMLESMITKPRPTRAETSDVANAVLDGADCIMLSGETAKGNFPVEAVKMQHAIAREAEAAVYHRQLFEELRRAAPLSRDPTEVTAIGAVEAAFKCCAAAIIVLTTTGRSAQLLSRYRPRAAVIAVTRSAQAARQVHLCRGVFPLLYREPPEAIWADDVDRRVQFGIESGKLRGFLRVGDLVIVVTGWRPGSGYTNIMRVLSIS
UniProt Q64663, sequence (whole entry, unmodified, looked up): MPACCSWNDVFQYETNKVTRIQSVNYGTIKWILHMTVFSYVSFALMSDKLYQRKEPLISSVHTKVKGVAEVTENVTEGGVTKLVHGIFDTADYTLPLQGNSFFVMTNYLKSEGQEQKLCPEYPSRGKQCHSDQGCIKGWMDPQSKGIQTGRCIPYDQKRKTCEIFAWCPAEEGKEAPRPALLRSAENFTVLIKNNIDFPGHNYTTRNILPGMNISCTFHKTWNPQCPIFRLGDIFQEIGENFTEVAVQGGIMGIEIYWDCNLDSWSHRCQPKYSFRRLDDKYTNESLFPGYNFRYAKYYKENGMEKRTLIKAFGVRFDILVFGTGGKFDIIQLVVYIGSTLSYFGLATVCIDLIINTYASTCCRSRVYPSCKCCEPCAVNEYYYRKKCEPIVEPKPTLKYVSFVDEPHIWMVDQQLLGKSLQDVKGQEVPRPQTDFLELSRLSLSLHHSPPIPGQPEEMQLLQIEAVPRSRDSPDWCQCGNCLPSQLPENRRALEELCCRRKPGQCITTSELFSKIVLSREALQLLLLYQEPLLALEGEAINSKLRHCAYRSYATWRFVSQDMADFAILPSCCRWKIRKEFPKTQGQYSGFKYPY
UniProt P00441, sequence (whole entry, unmodified, looked up): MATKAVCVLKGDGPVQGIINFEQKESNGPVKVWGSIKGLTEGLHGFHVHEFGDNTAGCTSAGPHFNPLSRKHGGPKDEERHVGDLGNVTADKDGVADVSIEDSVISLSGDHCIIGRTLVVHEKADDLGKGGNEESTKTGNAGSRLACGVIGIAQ

SMILES	target	assay	system	setting	scale	measurement	value
CCCNCC(O)COc1ccccc1C(=O)CCc1ccccc1 (centres unmarked)	Nuclear receptor subfamily 2 group C member 2 ligand-binding domain	SPR imaging	–	600 nM	–	koff	1.04e-07 s⁻¹
O=C1c2ccccc2CCN1CCCCN1CCN(c2cccc(Cl)c2Cl)CC1	D(1B) dopamine receptor (DRD5, Homo sapiens, UniProt P21918)	radioligand binding	–	concentration not given, together with: [3H]SCH23390	–	inhibition	76.6%
COc1cc(Nc2ncc3c(n2)-c2ccc(Cl)cc2C(c2c(F)cccc2OC)=NC3)ccc1C(=O)O	BLK	kinase activity	–	1 µM	–	remaining activity	8%
CCCCCCCCCCCCCCCC(=O)SCCNC(=O)CCNC(=O)[C@H](O)C(C)(C)COP(=O)(O)OP(=O)(O)OC[C@H]1O[C@@H](n2cnc3c(N)ncnc32)[C@H](O)[C@@H]1OP(=O)(O)O	glycerol-3-phosphate acyltransferase, mouse	substrate	mouse testis total membranes	pH 7.5, room temperature, together with: [3H]glycerol-3-phosphate	–	Km	112 ± 24.9 µM
Nc1ncnc2c1ncn2[C@@H]1O[C@H](COP(=O)(O)OP(=O)(O)OP(=O)(O)O)[C@@H](O)[C@H]1O	ATP-sensitive inward rectifier potassium channel 1 (Rattus norvegicus, UniProt P35560)	inside-out patch clamp	renal principal cells, rat	together with: PKA	–	concentration restoring channel activity	0.05 to 0.1 mM
CCN1CCC[C@H]1CNC(=O)c1c(O)c(Cl)cc(Cl)c1OC	G-protein coupled receptor 37-like 1 (GPR37L1, Homo sapiens, UniProt O60883)	β-arrestin recruitment, TANGO luminescence	–	concentration not given	relative to: basal luminescence	log2 fold change	-0.252
CC1(C)CC2(C)OC(=O)NC2(C)c2ccccc21 (centres unmarked)	E3 SUMO-protein ligase PIAS1 (PIAS1, Homo sapiens, UniProt O75925)	binding, affinity selection mass spectrometry	–	–	relative to: other proteins in batch	fold enrichment	1.32
COc1cc(NC(C)CCCN)c2ncccc2c1 (centres unmarked)	Nuclear receptor subfamily 2 group C member 2 ligand-binding domain	SPR imaging	–	600 nM	–	koff	1.55e-06 s⁻¹
CC(=O)NCCCC[C@H](NC(=O)CNC(=O)CNC(=O)[C@H](CCCCNC(C)=O)NC(=O)CNC(=O)[C@H](CCCNC(=N)N)NC(=O)CNC(=O)[C@@H](N)CO)C(=O)NCC(=O)N[C@@H](CC(C)C)C(=O)NCC(N)=O	Bromodomain-containing protein 1 (BRD1, Homo sapiens, UniProt O95696, R585F)	binding, ITC	–	15 °C, together with: peptide 2 mM	–	ΔG	-21.8 kJ/mol
O=C(/C=C\n1cnc(-c2cc(C(F)(F)F)cc(C(F)(F)F)c2)n1)NNc1cnccn1	Exportin-1 (XPO1, Homo sapiens, UniProt O14980)	nuclear export, high content imaging	HeLa Kyoto reporter	0.1 µM, 2 h	–	cells with nuclear reporter	4.11% and 5.6%
O=C(COP(=O)(O)O)[C@@H](O)[C@H](O)[C@H](O)COP(=O)(O)O	Pyruvate kinase PKLR (PKLR, Homo sapiens, UniProt P30613)	thermal proteome profiling	HepG2 cell lysate	concentration not given, 57 over 37 °C	relative to: compound over control	thermal stability ratio	1 and 0.25 and 0.545
CCCC[C@H]1CN(c2cccc(OC(F)(F)F)c2)C(=O)CN1Cc1cncn1Cc1ccc(Br)cc1	Protein farnesyltransferase (Cryptococcus neoformans, UniProt J9VSJ6+T2BPA1)	uncompetitive inhibitor	–	together with: 10 mM phosphate	–	Ki	0.5 µM
O=c1nc(SCc2cc(F)cc(C(F)(F)F)c2)nc(SCc2csc3ccc(Cl)cc23)[nH]1	DNA topoisomerase 2-alpha (TOP2A, Homo sapiens, UniProt P11388)	DNA cleavage	–	15.6 µM	–	mean linear DNA	2.21%
[O-][S+]1CCCCS1 (centres unmarked)	Superoxide dismutase [Cu-Zn] (SOD1, Homo sapiens, UniProt P00441, G94A)	LC-MS	brain homogenate	1 µM, 1 h, 37 °C	–	SOD1 monomer fraction	99.7%
CN(C)C(=O)C(CCN1CCC(O)(c2ccc(Cl)cc2)CC1)(c1ccccc1)c1ccccc1	Calcium-activated potassium channel subunit alpha-1, with LRRC26 γ1 subunit (KCNMA1, Homo sapiens, UniProt Q12791)	BK channel conductance, inside-out patch clamp	–	BKα/γ1, Vm 120 mV, nominally Ca2+-free	–	Hill coefficient	0.735 ± 0.071
C=C(c1ccc(C(=O)O)cc1)c1cc2c(cc1C)C(C)(C)CCC2(C)C	Nuclear receptor subfamily 2 group C member 2 ligand-binding domain	SPR imaging	–	600 nM	–	koff	2.82e-05 s⁻¹
Cc1ccc(C(=O)Nc2ccc3ccccc3c2)o1	Otop1 (Mus musculus, UniProt Q80VM9)	proton current, voltage ramp patch-clamp	–	10 µM, Na+ bath cation	–	reversal potential	56.7 mV
Nc1ncnc2c1ncn2[C@@H]1O[C@H](COP(=O)(O)OP(=O)(O)OP(=O)(O)O)[C@@H](O)[C@H]1O	P2X purinoceptor 7 (P2rx7, Rattus norvegicus, UniProt Q64663)	ion current, two-electrode voltage clamp	Xenopus laevis oocytes	333 µM	–	normalized current	1 and 0.95 and 0.93
OC[C@H]1OC(O)[C@H](O)[C@@H](O)[C@@H]1O (some centres unmarked)	Nuclear receptor subfamily 2 group C member 2 ligand-binding domain	SPR imaging	–	600 nM	–	koff	1.93e-07 s⁻¹
Nc1nc2c(ncn2[C@@H]2O[C@H](COP(=O)(O)OP(=O)(O)O)[C@@H](O)[C@H]2O)c(=O)[nH]1	GUK1	ITC	–	concentration not given	–	ΔG of binding	-26.1 kJ/mol
NC/C(=C\F)COc1cccc(Cn2c(=S)[nH]c(=O)c3[nH]cnc32)c1	Myeloperoxidase (MPO, Homo sapiens, UniProt P05164)	H2O2 consumption, inhibitor, H2O2 electrode	–	0.25 µM, 0.2 s	–	H2O2 concentration	-0.329 µM
C[S+](CC[C@H](N)C(=O)O)C[C@H]1O[C@@H](n2cnc3c(N)ncnc32)[C@H](O)[C@@H]1O (some centres unmarked)	O-methyltransferase (Sorghum bicolor, UniProt A0A1B6PFV1)	–	–	concentration not given, together with: PTR+	–	ΔG of binding	-22 kJ/mol

SMILES	target	assay	system	setting	scale	measurement	value
COc1cc(-c2cncc3c2CN(C)Cc2cc(N4CCNCC4)ccc2-3)cc(OC)c1OC	Death-associated protein kinase 2 (DAPK2, Homo sapiens, UniProt Q9UIK4)	kinase activity	–	1 µM, human enzyme, together with: ATP 10 µM	relative to: DMSO control	remaining activity	108%
CC[C@H](C)[C@@H]1NC(=O)[C@H](Cc2ccc(O)cc2)NC(=O)CSC[C@@H](C(N)=O)NC(=O)CNC(=O)[C@H](Cc2c[nH]cn2)NC(=O)[C@H](CCCNC(=N)N)NC(=O)[C@H](CC(N)=O)NC(=O)[C@@H]2CCCN2C(=O)[C@H](Cc2ccccc2)NC(=O)[C@H]([C@@H](C)O)NC(=O)CNC(=O)[C@H](CC(C)C)NC(=O)[C@@H]2CCCN2C(=O)[C@H]([C@@H](C)O)NC(=O)[C@H](CCCCN)NC1=O	VPS35/VPS29 (Homo sapiens, UniProt Q96QK1+Q9UBQ0)	binding, isothermal titration calorimetry	–	25 °C	–	ΔH	-33.1 ± 5.02 kJ/mol
O=S(=O)(O)O	GUK1	enzyme activity, NADH-coupled	–	5 mM, together with: ATP 500 µM	–	reaction velocity	0.0964 µM/s and 0.112 µM/s and 0.0809 µM/s
CC(=O)c1ccc2cc(S(=O)(=O)Nc3ccccn3)ccc2c1	Signal transducer and activator of transcription 3 (STAT3, Homo sapiens, UniProt P40763)	tyrosine phosphorylation, inhibitor, ELISA, measured: phospho-Tyr705	–	–	–	Hill slope	-0.422
CC(C)C[C@@H]1NC(=O)[C@H](C)NC(=O)CNC(=O)[C@H](CC(N)=O)NC(=O)[C@@H]2CCCN2C(=O)[C@H](Cc2ccc(O)cc2)NC(=O)[C@H](CCCNC(=N)N)NC(=O)[C@H](Cc2ccccc2)NC(=O)[C@@H](NC(=O)[C@H](CCCCN)NC(=O)[C@@H]2CCCN2C(=O)[C@H](CO)NC(=O)[C@H](C)NC(=O)[C@@H](N)Cc2ccc(O)cc2)CSSC[C@@H](C(=O)N[C@H](C(N)=O)[C@@H](C)O)NC(=O)[C@H](C)NC1=O	Alpha-2-HS-glycoprotein, asialo (AHSG, Bos taurus, UniProt P12763)	binding, isothermal titration calorimetry	–	pH 7.0, 25 °C, together with: asialofetuin	–	-TΔS	-1.23 kJ/mol
[H]/N=C(/N)NCC(=O)O	Sodium- and chloride-dependent taurine transporter (SLC6A6, Homo sapiens, UniProt P31641, L306A)	binding, microscale thermophoresis	–	15.6 µM, room temperature, together with: 50 nM labelled protein	higher = more binding	normalised MST signal	0.0217
CC1(C)S[C@@H]2[C@H](NC(=O)[C@H](N)c3ccccc3)C(=O)N2[C@H]1C(=O)O	Nuclear receptor subfamily 2 group C member 2 ligand-binding domain	SPR imaging	–	600 nM	–	koff	2.29e-05 s⁻¹
CC[C@@H]1[C@H](F)C(=O)N[C@@H]1COc1nccc2cc(C(N)=O)c(OC)cc12	Cyclin-dependent kinase 14 (CDK14, Homo sapiens, UniProt O94921)	ATP probe binding, KiNativ profiling, measured: Lys1 probe site	THP-1 cell lysate	0.04 mM	–	inhibition	2.9%
C[C@H](N)C(=O)N[C@@H](CCCNC(=N)N)C(=O)N[C@H](C(=O)N[C@@H](C)C(=O)N[C@@H](CCC(N)=O)C(=O)N[C@H](C(=O)N[C@@H](C)C(=O)N[C@@H](CCCNC(=N)N)C(=O)N[C@@H](CCCCN)C(=O)N[C@@H](CO)C(=O)O)[C@@H](C)O)[C@@H](C)O	ATRX F284Y/K251R	isothermal titration calorimetry	–	pH 7.5, 25.0 °C	–	binding free energy	-20.1 kJ/mol
COc1cccc(OC[C@@H]2CN(CC(=O)N3CCc4ccccc43)CCO2)c1	5-hydroxytryptamine receptor 1A (HTR1A, Homo sapiens, UniProt P08908)	radioligand binding	–	concentration not given, together with: [3H]8-OH-DPAT	–	inhibition	91.3%
CC[C@H](C)[C@H](NC(=O)[C@H](CCC(=O)O)NC(=O)[C@H](CCC(=O)O)NC(=O)[C@@H]1CCCN1C(=O)[C@H](CC(=O)O)NC(=O)[C@H](C)NC(=O)[C@H](CCC(N)=O)NC(=O)[C@@H](NC(=O)[C@H](C)NC(=O)[C@@H](NC(=O)[C@H](CO)NC(=O)[C@@H](NC(=O)[C@H](CCCCN)NC(=O)[C@@H](N)Cc1ccc(O)cc1)[C@@H](C)O)C(C)C)[C@@H](C)O)C(=O)N[C@H](C(=O)N[C@H](C(=O)N[C@@H](CC(C)C)C(=O)N[C@@H](CC(=O)O)C(=O)N[C@@H](CC(=O)O)C(=O)N[C@@H](CC(=O)O)C(=O)N[C@@H](CC(=O)O)C(=O)O)C(C)C)[C@@H](C)CC	Small ubiquitin-related modifier 1 (Homo sapiens, UniProt P63165, C52A)	isothermal titration calorimetry	–	pH 7.4, SUMO1 construct	–	-TΔS	-53.1 ± 2.51 kJ/mol
CCOCC(O)COc1ccc(NC(=O)CC[S+](C)C)cc1 (centres unmarked)	Nuclear receptor subfamily 2 group C member 2 ligand-binding domain	SPR imaging	–	600 nM	–	koff	3.75e-07 s⁻¹
Cn1cc(-c2cnc3ccc(NC(=O)Nc4ccc(F)c(Br)c4)cc3n2)cn1	Inhibitor of nuclear factor kappa-B kinase subunit beta (IKBKB, Homo sapiens, UniProt O14920)	kinase binding, KiNativ profiling, measured: Lys1 peptide	PANC-1 lysate	10 µM	–	inhibition	5.7%
O=C1OC(c2ccccc2)=N/C1=C\c1ccc(O)cc1	Alpha-glucosidase MAL12 (MAL12, Saccharomyces cerevisiae S288c, UniProt P53341)	inhibitor, Lineweaver-Burk	–	3200 ppm, together with: pNPG substrate	–	Vmax	0.046 mM/min
N#Cc1ccc2c(-c3ccncc3)c(-c3ccc(F)cc3)nn2c1	Receptor-interacting serine/threonine-protein kinase 2 (RIPK2, Homo sapiens, UniProt O43353)	NanoBRET	HEK293	1.0 µM	–	receptor occupancy	40 to 70%
C=CC(=O)N1CCC(COCC(=O)N2CCN(c3nc(-c4cnc(N)nc4C(F)F)nc(N4CCOC[C@@H]4C)n3)CC2)CC1	Serine/threonine-protein kinase 33 (STK33, Homo sapiens, UniProt Q9BYT3)	KINOMEscan	–	1 µM	–	remaining binding	98%
O=C(O)[C@@H]1CCCN1c1ncnc2[nH]cnc12 (racemic)	YTH domain-containing protein 1	binding, affinity selection mass spectrometry	–	–	relative to: other proteins in batch	log fold enrichment	-0.0605
Nc1nc2c(ncn2[C@@H]2O[C@H](COP(=O)(O)O)[C@@H](O)[C@H]2O)c(=O)[nH]1	GUK1	enzyme activity, NADH-coupled	–	7.812 µM, together with: KCl 50 mM	–	reaction velocity	-0.0316 µM/s and 0.00628 µM/s and 0.0611 µM/s
C[C@H](N)C(=O)N[C@@H](CCCNC(=N)N)C(=O)N[C@H](C(=O)N[C@@H](CCCCN(C)C)C(=O)N[C@@H](CCC(N)=O)C(=O)N[C@H](C(=O)N[C@@H](C)C(=O)N[C@@H](CCCNC(=N)N)C(=O)N[C@@H](CCCCN)C(=O)N[C@@H](CO)C(=O)N[C@H](C(=O)NCC(=O)NCC(=O)N[C@@H](CCCCN)C(=O)N[C@@H](C)C(=O)N[C@@H](Cc1ccc(O)cc1)C(=O)O)[C@@H](C)O)[C@@H](C)O)[C@@H](C)O	ATRX F284Y/K251R	isothermal titration calorimetry	–	pH 7.5, 25.0 °C	–	binding free energy	-23.9 kJ/mol
Nc1ncnc2c1ncn2[C@@H]1O[C@H](COP(=O)(O)CP(=O)(O)OP(=O)(O)O)[C@@H](O)[C@H]1O	P2X purinoceptor 1 (P2RX1, Homo sapiens, UniProt P51575, K140A)	calcium influx	–	100 nM	relative to: ionomycin response	calcium influx	23.5% and 21.7% and 21% and 19.1%
CCCC[C@H]1CN(c2cccc(OC(F)(F)F)c2)C(=O)CN1Cc1cncn1Cc1ccc(C(F)(F)F)cc1	Cryptococcus neoformans farnesyltransferase	enzyme activity, inhibitor, fluorescence	–	together with: 1 µM FPP, 0.5 µM dansylated peptide	–	IC50	0.28 ± 0.15 µM
CCCCC[S+]([O-])c1n[nH]c(N)n1 (centres unmarked)	YTH domain-containing protein 1	binding, affinity selection mass spectrometry	–	–	relative to: other proteins in batch	log fold enrichment	-0.262
